Experimental data of several laboratories.
Compare with care: the assays were run in different laboratories. Numbers after ± are the reported error.

For `Cc1ccc(OCC(=O)N(Cc2cccs2)c2ccn[nH]2)cc1`, the Cmax was 1330 ± 94 ng/mL (male beagle dog, plasma; intravenous, 1.0 mg/kg).
With `CCCC[C@H](NC(C)=O)C(=O)N[C@H]1CC(=O)NCCCC[C@@H](C(=O)N[C@@H](C(=O)N2CCC[C@@H]2C(N)=O)C(C)C)NC(=O)[C@H](Cc2c[nH]c3ccccc23)NC(=O)[C@H](CCCN=C(N)N)NC(=O)[C@@H](Cc2ccc3ccccc3c2)NC(=O)[C@@H]2CCCN2C1=O` the Cmax was 5000 ± 800 ng/mL (Beagle dog, both sexes, plasma; subcutaneous, once daily, 2.25 mg/kg, day 5).
With `CC(C)C[C@@H](NC(=O)[C@H](NC(=O)[C@H]1CCCN1)[C@H](C)O)C(=O)N[C@H](Cc1c[nH]cn1)C(=O)N[C@@H](C(=O)N[C@H](Cc1c[nH]cn1)C(=O)N[C@H](CC(N)=O)C(=O)N[C@H](CCCNC(=N)N)C(=O)N[C@H](CCCNC(=N)N)C(=O)N[C@H](CCCNC(=N)N)C(=O)N[C@H](CCCNC(=N)N)C(=O)N[C@H](CCCNC(=N)N)C(N)=O)[C@H](C)O` the Cmax was 71 ± 32 ng/mL (Beagle dog, CSF; intravenous, 3 mg/kg, single dose).
`CCCC[C@H](NC(C)=O)C(=O)N[C@H]1CC(=O)NCCCC[C@@H](C(=O)N[C@@H](C(=O)N2CCC[C@@H]2C(N)=O)C(C)C)NC(=O)[C@H](Cc2c[nH]c3ccccc23)NC(=O)[C@H](CCCN=C(N)N)NC(=O)[C@@H](Cc2ccc3ccccc3c2)NC(=O)[C@@H]2CCCN2C1=O` has a Cmax of 1520 ± 200 ng/mL (dog, cachectic, plasma; subcutaneous, 0.75 mg/kg once daily, day 1, 1 h post-dose).
`CC(=O)N[C@H](CC(=O)O)C(=O)N[C@H](Cc1c[nH]c2ccccc12)C(=O)N[C@H](Cc1ccccc1)C(=O)N[C@H](CCCCN)C(=O)N[C@H](C)C(=O)N[C@H](Cc1ccccc1)C(=O)N[C@H](Cc1ccc(O)cc1)C(=O)N[C@H](CC(=O)O)C(=O)N[C@H](CCCCN)C(=O)N[C@@H](C(=O)N[C@H](C)C(=O)N[C@H](CCC(=O)O)C(=O)N[C@H](CCCCN)C(=O)N[C@H](Cc1ccccc1)C(=O)N[C@H](CCCCN)C(=O)N[C@H](CCC(=O)O)C(=O)N[C@H](C)C(=O)N[C@H](Cc1ccccc1)C(N)=O)C(C)C` has a Cmax of 80.2 ng/mL (statin-treated high-risk CHD patients, plasma; oral, 500 mg daily, day 13, 0 to 8 h, mean, all subjects).
`Cc1ncc2c(n1)CN(C(=O)Nc1nc(-c3cccs3)ccc1N)C2` has a Cmax of 18600 ng/mL (beagle dog, male; oral, 120 mg/kg daily, day 14, 14-day toxicity study).
`Cc1ccc(OCC(=O)O)cc1` gave a Cmax of 1180 ± 275 ng/mL (Sprague-Dawley rat Crl:CD(SD), male, plasma; oral, 10 mg/kg/day of parent drug, day 90, 90-day repeated dosing).
The Cmax of `CC(C)(O)c1ncc([S@](N)(=O)=NC(=O)Nc2c3c(cc4c2CCC4)CCC3)s1` is reported as 3470 ng/mL (healthy human, fed; oral, 25 mg twice daily, day 14, tablet formulation, geometric mean).

A few entries again:
`Cc1ncc2c(n1)CN(C(=O)Nc1nc(-c3cccs3)ccc1N)C2` has a Cmax of 18600 ng/mL (beagle dog, male; oral, 120 mg/kg daily, day 14, 14-day toxicity study).
